# Measured values gathered from unrelated publications.
# Protocols differ between the studies behind these lines.
# Organism: Escherichia coli
SMILES,assay,system,conditions,scale,MIC
CC[C@H](C)[C@H](NC(=O)[C@H](C)NC(=O)CNC(=O)[C@H](C)NC(=O)[C@H](CCCCN)NC(=O)[C@H](CO)NC(=O)[C@H](C)NC(=O)[C@H](CCSC)NC(=O)CN)C(=O)N[C@@H](C)C(=O)NCC(=O)N[C@@H](CCCCN)C(=O)N[C@H](C(=O)N[C@@H](C)C(=O)N[C@@H](CCCCN)C(=O)N[C@H](C(=O)N[C@@H](C)C(=O)N[C@@H](CC(C)C)C(=O)N[C@@H](CCCCN)C(=O)N[C@@H](C)C(=O)N[C@@H](CC(C)C)C(N)=O)C(C)C)[C@@H](C)CC,broth dilution,K12 BW25113,"18 h, 37 °C",,4.6 µM
CC[C@H](C)[C@H](NC(=O)[C@H](C)NC(=O)[C@H](CCCNC(=N)N)NC(=O)[C@H](CCCNC(=N)N)NC(=O)[C@H](CCCNC(=N)N)NC(=O)[C@H](CCCNC(=N)N)NC(=O)[C@H](CCCNC(=N)N)NC(=O)[C@@H](N)CCCNC(=N)N)C(=O)N[C@@H](CO)C(=O)NCC(=O)N[C@@H](CO)C(=O)N[C@@H](CC(C)C)C(=O)N[C@H](C(=O)N[C@H](C(=O)N[C@@H](CC(C)C)C(=O)N[C@@H](Cc1ccccc1)C(=O)NCC(=O)N[C@@H](Cc1ccc(O)cc1)C(N)=O)[C@@H](C)O)C(C)C,broth microdilution,ATCC 25922,highest value reported,,4 µM
CC[C@H](C)[C@H](NC(=O)[C@H](CCCNC(=N)N)NC(=O)[C@H](CCCNC(=N)N)NC(=O)[C@H](CC(C)C)NC(=O)[C@H](CC(N)=O)NC(=O)[C@@H](N)CCCCN)C(=O)N[C@H](C(=O)N[C@@H](CCCNC(=N)N)C(=O)N[C@@H](CCCCN)C(=O)N[C@H](C(=O)N[C@H](C(=O)N[C@@H](Cc1c[nH]cn1)C(=O)N[C@H](C(=O)N[C@H](C(=O)N[C@@H](CCCCN)C(=O)N[C@@H](CCCCN)C(=O)N[C@@H](Cc1ccc(O)cc1)C(=O)NCC(=O)O)[C@@H](C)CC)[C@@H](C)CC)[C@@H](C)CC)[C@@H](C)CC)[C@@H](C)CC,broth microdilution,"NBRC 3972, Mueller-Hinton broth","24 h, 37 °C",,3.2 µM
CC[C@H](C)[C@H](NC(=O)CNC(=O)[C@H](CC(=O)O)NC(=O)[C@H](CCCNC(=N)N)NC(=O)[C@@H](NC(=O)[C@H](CC(N)=O)NC(=O)[C@H](CCCNC(=N)N)NC(=O)CNC(=O)[C@@H](NC(=O)[C@H](CCCCN)NC(=O)[C@H](CCC(=O)O)NC(=O)[C@@H](NC(=O)[C@H](CCCCN)NC(=O)[C@H](CCCCN)NC(=O)[C@H](Cc1ccccc1)NC(=O)[C@@H](NC(=O)[C@H](CCCCN)NC(=O)[C@H](Cc1c[nH]c2ccccc12)NC(=O)[C@@H](N)CCCNC(=N)N)[C@@H](C)CC)[C@@H](C)CC)C(C)C)C(C)C)C(=O)N[C@H](C(=O)N[C@@H](CCCCN)C(=O)N[C@@H](C)C(=O)NCC(=O)N1CCC[C@H]1C(=O)N[C@@H](C)C(=O)N[C@H](C(=O)N[C@@H](C)C(=O)N[C@H](C(=O)N[C@H](C(=O)NCC(=O)N[C@@H](CCC(N)=O)C(=O)N[C@@H](C)C(=O)N[C@@H](C)C(=O)N[C@H](C(=O)N[C@@H](C)C(=O)N[C@@H](C)C(=O)N[C@@H](CCCCN)C(N)=O)[C@@H](C)O)C(C)C)C(C)C)C(C)C)[C@@H](C)CC,,"K1 ATCC 700973, Mueller-Hinton broth","16 h, 37 °C",growth inhibition over 99%,2 µM
CC[C@H](C)[C@H](NC(=O)[C@H](CC(C)C)NC(=O)[C@H](CCCCN)NC(=O)[C@@H](NC(=O)[C@H](C)NC(=O)[C@H](CCC(=O)O)NC(=O)[C@H](Cc1c[nH]cn1)NC(=O)[C@@H](NC(=O)[C@H](CCCCN)NC(=O)[C@H](CCC(N)=O)NC(=O)[C@H](Cc1ccccc1)NC(=O)[C@@H](N)C(C)C)[C@@H](C)CC)[C@@H](C)CC)C(N)=O,broth microdilution,CCARM 1238 resistant,"18 h, 37 °C",,> 128 µM
CC[C@H](C)[C@H](NC(=O)[C@H](CCCCN)NC(=O)[C@@H](NC(=O)[C@H](Cc1ccc(O)cc1)NC(=O)[C@H](CCCCN)NC(=O)[C@H](CCCCN)NC(=O)CNC(=O)[C@H](CCCCN)NC(=O)[C@@H](NC(=O)[C@H](C)NC(=O)[C@H](CC(C)C)NC(=O)[C@H](Cc1c[nH]c2ccccc12)NC(=O)CNC(=O)[C@@H](NC(=O)[C@H](Cc1ccccc1)NC(=O)[C@H](CCCCN)NC(=O)[C@H](CC(C)C)NC(=O)[C@H](Cc1ccccc1)NC(=O)[C@H](C)NC(=O)CNC(=O)[C@@H](N)CCSC)C(C)C)[C@@H](C)O)C(C)C)C(=O)N[C@@H](C)C(=O)N[C@@H](Cc1c[nH]c2ccccc12)C(=O)N[C@@H](CC(=O)O)C(=O)N[C@@H](Cc1c[nH]cn1)C(=O)N[C@@H](CCCCN)C(=O)NCC(=O)N[C@H](C(=O)N[C@H](C(=O)N[C@@H](CCSC)C(=O)N[C@@H](CCCCN)C(=O)N[C@@H](Cc1c[nH]c2ccccc12)C(=O)N[C@@H](CC(C)C)C(=O)N[C@@H](CC(N)=O)C(=O)N[C@@H](C)C(=O)NCC(=O)N[C@@H](CCC(N)=O)C(=O)N[C@H](C(=O)N[C@@H](Cc1ccccc1)C(=O)N[C@H](C(=O)N[C@@H](Cc1c[nH]c2ccccc12)C(=O)N[C@H](C(=O)N[C@@H](Cc1ccc(O)cc1)C(=O)N[C@@H](CCC(=O)O)C(=O)N[C@@H](CCC(N)=O)C(=O)N[C@H](C(=O)N[C@@H](CCCCN)C(=O)N[C@@H](CCCCN)C(=O)N[C@@H](CC(C)C)C(=O)N[C@@H](Cc1c[nH]c2ccccc12)C(=O)N[C@H](C(=O)O)[C@@H](C)O)[C@@H](C)CC)C(C)C)[C@@H](C)O)[C@@H](C)O)[C@@H](C)CC)[C@@H](C)O,,,"37 °C, non-formylated synthetic",,> 62.5 µg/mL
O=C(O)C1CSC(C(=O)O)N1 (stereo not shown),,NDM-1 producing,compound alone,,> 2000 µM
CC[C@H](C)[C@H](NC(=O)[C@H](CO)NC(=O)CNC(=O)[C@H](CCCCN)NC(=O)[C@@H](NC(=O)[C@H](CC(N)=O)NC(=O)[C@H](Cc1ccccc1)NC(=O)[C@H](CC(N)=O)NC(=O)[C@@H](NC(=O)[C@H](CCCNC(=N)N)NC(=O)[C@@H]1CCCN1C(=O)[C@H](CCCNC(=N)N)NC(=O)[C@@H](NC(=O)[C@H](CCCNC(=N)N)NC(=O)[C@H](CCCNC(=N)N)NC(=O)[C@@H](NC(=O)[C@H](CCCNC(=N)N)NC(=O)[C@H](CO)NC(=O)[C@H](CC(C)C)NC(=O)[C@H](Cc1ccccc1)NC(=O)[C@H](CCCNC(=N)N)NC(=O)CNC(=O)[C@H](Cc1ccccc1)NC(=O)[C@H](CCCNC(=N)N)NC(=O)CNC(=O)[C@H](CCCNC(=N)N)NC(=O)[C@H](CCC(N)=O)NC(=O)[C@@H](NC(=O)[C@@H](N)CC(C)C)C(C)C)[C@@H](C)CC)[C@@H](C)CC)[C@@H](C)CC)[C@@H](C)CC)C(=O)O,broth microdilution,"ATCC 25922, Mueller-Hinton broth","16 to 20 h, 37 °C",,2.49 µM
CC[C@H](C)[C@H](NC(=O)CNC(=O)[C@H](CC(=O)O)NC(=O)[C@H](CCCNC(=N)N)NC(=O)[C@@H](NC(=O)[C@H](CC(N)=O)NC(=O)[C@H](CCCNC(=N)N)NC(=O)CNC(=O)[C@@H](NC(=O)[C@H](CCCCN)NC(=O)[C@H](CCC(=O)O)NC(=O)[C@@H](NC(=O)[C@H](CCCCN)NC(=O)[C@H](CCCCN)NC(=O)[C@H](Cc1ccccc1)NC(=O)[C@@H](NC(=O)[C@H](CCCCN)NC(=O)[C@H](Cc1c[nH]c2ccccc12)NC(=O)[C@@H](N)CCCNC(=N)N)[C@@H](C)CC)[C@@H](C)CC)C(C)C)C(C)C)C(=O)N[C@H](C(=O)N[C@@H](CCCCN)C(=O)N[C@@H](C)C(=O)NCC(=O)N1CCC[C@H]1C(=O)N[C@@H](C)C(=O)N[C@H](C(=O)N[C@@H](C)C(=O)N[C@@H](C)C(=O)N[C@@H](C)C(=O)NCC(=O)N[C@@H](CCC(N)=O)C(=O)N[C@@H](C)C(=O)N[C@@H](C)C(=O)N[C@H](C(=O)N[C@H](C(=O)N[C@H](C(=O)N[C@@H](CCCCN)C(N)=O)C(C)C)C(C)C)[C@@H](C)O)C(C)C)[C@@H](C)CC,,"KCTC 1682, Mueller-Hinton broth","16 h, 37 °C",growth inhibition over 99%,2 µM
CC1(C)SC2C(NC(=O)C(NC(=O)C3=C(O)C(c4ccccc4)NC3=O)c3ccccc3)C(=O)N2C1C(=O)O (stereo not shown),broth microdilution,Keio mutant JW2142-1,,,25 µg/mL
CCCCCCC/C=C/C(=O)N1C(=O)/C(=C(/C)O)C(=O)C1Cc1ccc(OC(C)(C)C)cc1 (stereo not shown),,K12 ΔtolC,,,12.5 µg/mL
CC[C@H](C)[C@H](N)C(=O)N[C@@H](CC(C)C)C(=O)NCC(=O)N[C@@H](CCC(=O)O)C(=O)N[C@H](C(=O)N[C@@H](Cc1c[nH]c2ccccc12)C(=O)N[C@@H](CCCCN)C(=O)NCC(=O)N[C@H](C(=O)N[C@@H](CCCCN)C(=O)N[C@@H](CC(=O)O)C(=O)N[C@H](C(=O)N[C@@H](CC(C)C)C(N)=O)[C@@H](C)CC)[C@@H](C)CC)[C@@H](C)CC,broth microdilution,ATCC 25922,together with: KCl 4.5 mM,,100 µM
CC(C)C1NC(=O)C(C(=O)NC(C(=O)NC2C(=O)N3C2SC(C)(C)C3C(=O)O)c2ccccc2)=C1O (stereo not shown),broth microdilution,Keio mutant JW5195-1,18 h,,50 µg/mL
CC[C@H](C)[C@H](NC(=O)[C@H](CC(C)C)NC(=O)[C@H](CCCNC(=N)N)NC(=O)[C@@H](N)CCCNC(=N)N)C(=O)N[C@@H](CC(C)C)C(=O)N[C@H](C(=O)N[C@@H](CCCCN)C(=O)N[C@H](C(=O)NCC(=O)N1CCC[C@H]1C(=O)N[C@H](C(=O)N[C@H](C(=O)N[C@@H](Cc1ccc(O)cc1)C(=O)N[C@@H](CCCCN)C(=O)N[C@@H](Cc1ccc(O)cc1)C(=O)N[C@@H](Cc1ccccc1)C(=O)N[C@@H](CCCCN)C(=O)N[C@@H](CCCCN)C(=O)N[C@@H](CCC(N)=O)C(=O)N[C@@H](CC(C)C)C(=O)N[C@@H](CCCCN)C(=O)N[C@@H](CCCCN)C(=O)N[C@@H](CC(C)C)C(N)=O)[C@@H](C)CC)[C@@H](C)CC)[C@@H](C)O)[C@@H](C)O,broth microdilution,"KCTC 1682, Mueller-Hinton broth","24 h, 37 °C",,8 µM
C[C@@H](O)[C@H]1C(=O)N2C(C(=O)O)=C(S[C@@H]3CN[C@H](C(=O)Nc4cccc(C(=O)O)c4)C3)[C@H](C)[C@H]12,,BL21(DE3) wild type,,,< 0.09 µg/mL
CC[C@H](C)[C@H](NC(=O)[C@H](Cc1c[nH]c2ccccc12)NC(=O)[C@@H](NC(=O)[C@@H](NC(=O)[C@@H](NC(=O)[C@H](CCCNC(=N)N)NC(=O)[C@@H](N)CCCNC(=N)N)[C@@H](C)CC)[C@@H](C)O)[C@@H](C)CC)C(=O)N[C@H](C(=O)N[C@H](C(=O)N[C@@H](CCCNC(=N)N)C(=O)N[C@@H](CCCNC(=N)N)C(N)=O)[C@@H](C)CC)[C@@H](C)O,,UB1005,"24 h, 37 °C",,8 µM

# A few entries again:
SMILES,assay,system,conditions,scale,MIC
CC[C@H](C)[C@H](NC(=O)[C@H](CO)NC(=O)CNC(=O)[C@H](CCCCN)NC(=O)[C@@H](NC(=O)[C@H](CC(N)=O)NC(=O)[C@H](Cc1ccccc1)NC(=O)[C@H](CC(N)=O)NC(=O)[C@@H](NC(=O)[C@H](CCCNC(=N)N)NC(=O)[C@@H]1CCCN1C(=O)[C@H](CCCNC(=N)N)NC(=O)[C@@H](NC(=O)[C@H](CCCNC(=N)N)NC(=O)[C@H](CCCNC(=N)N)NC(=O)[C@@H](NC(=O)[C@H](CCCNC(=N)N)NC(=O)[C@H](CO)NC(=O)[C@H](CC(C)C)NC(=O)[C@H](Cc1ccccc1)NC(=O)[C@H](CCCNC(=N)N)NC(=O)CNC(=O)[C@H](Cc1ccccc1)NC(=O)[C@H](CCCNC(=N)N)NC(=O)CNC(=O)[C@H](CCCNC(=N)N)NC(=O)[C@H](CCC(N)=O)NC(=O)[C@@H](NC(=O)[C@@H](N)CC(C)C)C(C)C)[C@@H](C)CC)[C@@H](C)CC)[C@@H](C)CC)[C@@H](C)CC)C(=O)O,broth microdilution,"ATCC 25922, Mueller-Hinton broth","16 to 20 h, 37 °C",,2.49 µM
